# Assay results from different studies.
# Each numbered part is a random draw from the data of one study; scales do not carry over between parts. Substitutions count along the parent as printed.

# Block 1 — technique: DHFR PCA, deep sequencing; matrix: yeast; added: (+)-ABA 0 µM; relative to: wild-type fitted maximum; reading: higher = stronger binding
# Target: ABI1, truncated, D143A, DHFR fusion (Arabidopsis thaliana)
# Setting: methotrexate growth selection, single substitutions
# Starting sequence: PYL1, truncated, DHFR fusion (Arabidopsis thaliana); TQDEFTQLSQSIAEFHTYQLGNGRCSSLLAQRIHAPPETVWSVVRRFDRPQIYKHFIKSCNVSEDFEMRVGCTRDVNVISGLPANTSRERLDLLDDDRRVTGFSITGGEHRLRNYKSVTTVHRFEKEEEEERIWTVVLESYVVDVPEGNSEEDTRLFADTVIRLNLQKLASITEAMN
Variant,relative binding score [%]
I162Y,-4.58
V142K,-11.6
G23W,-0.687
G102F,-10.7
G108S,2.77
S171H,26.1
T101C,19.1
R24C,4.5
D159E,2.27
E129P,44.2
L91Q,-0.667
S42P,-4.86
N114S,1.51
S87L,33.4

# Block 2 — technique: universal PBM; form: double-stranded DNA, one strand shown; matrix: in vitro; concentration: 600 nM; reading: higher = stronger binding
# Target: Sal-like protein 4, full length isoform A (SALL4, Homo sapiens, UniProt Q9UJQ4, residues 1-1053)
# Chain of UniProt Q9UJQ4 (whole entry, looked up): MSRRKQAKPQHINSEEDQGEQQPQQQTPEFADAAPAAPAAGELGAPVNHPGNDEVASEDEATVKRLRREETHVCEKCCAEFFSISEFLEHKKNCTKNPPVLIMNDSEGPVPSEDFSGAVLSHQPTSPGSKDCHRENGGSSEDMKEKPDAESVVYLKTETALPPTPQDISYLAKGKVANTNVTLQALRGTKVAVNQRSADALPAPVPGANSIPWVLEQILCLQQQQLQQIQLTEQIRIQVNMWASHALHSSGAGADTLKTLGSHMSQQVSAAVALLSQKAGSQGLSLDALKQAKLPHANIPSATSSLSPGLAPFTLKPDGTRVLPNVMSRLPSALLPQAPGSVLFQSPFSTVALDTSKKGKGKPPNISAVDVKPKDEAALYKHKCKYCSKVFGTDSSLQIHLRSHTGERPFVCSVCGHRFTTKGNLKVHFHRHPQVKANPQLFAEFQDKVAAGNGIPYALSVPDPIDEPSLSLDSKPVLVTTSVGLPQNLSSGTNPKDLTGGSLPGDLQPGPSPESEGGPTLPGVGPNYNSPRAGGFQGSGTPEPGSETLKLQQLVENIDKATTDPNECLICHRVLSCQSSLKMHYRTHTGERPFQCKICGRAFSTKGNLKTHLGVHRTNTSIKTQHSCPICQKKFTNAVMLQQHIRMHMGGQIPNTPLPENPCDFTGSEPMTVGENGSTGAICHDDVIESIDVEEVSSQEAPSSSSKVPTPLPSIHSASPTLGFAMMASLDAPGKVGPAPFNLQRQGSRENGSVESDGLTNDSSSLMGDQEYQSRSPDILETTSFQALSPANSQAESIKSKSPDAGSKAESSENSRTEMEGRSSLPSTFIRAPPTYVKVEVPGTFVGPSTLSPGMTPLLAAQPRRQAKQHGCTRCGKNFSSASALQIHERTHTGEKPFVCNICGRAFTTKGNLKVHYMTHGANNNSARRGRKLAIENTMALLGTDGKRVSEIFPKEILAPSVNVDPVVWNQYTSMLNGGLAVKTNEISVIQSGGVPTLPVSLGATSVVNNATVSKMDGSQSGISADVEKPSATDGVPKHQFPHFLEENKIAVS
# Setting: 8-mer, flanks averaged, mean of replicates
Oligonucleotide,E-score
CTACTAAA,0.128
AGGGCAAC,-0.134
AGACAGGC,-0.232
GGACTAGA,-0.0837
ATTTTGAA,0.332
GACAATCC,0.0209
GCAGGAGC,-0.222
AGATCATC,0.0992
GTAGAAAC,-0.0135
CAGTAAGG,-0.0161
CAACACAA,0.146
ATAACCAA,0.31
CATTAATG,0.264
AAACCTCT,0.0508
CTGCATCA,0.0614
CAGCATGG,-0.166

# Block 3 — target: CCND3, cyclin fold, Cln2 fusion (human); technique: yeast growth competition, sequencing; matrix: yeast; setting: weak parent motif; relative to: not given; reading: higher = stronger binding
# Starting sequence: HIRA docking peptide (human); SLSKRKLELEVET; partner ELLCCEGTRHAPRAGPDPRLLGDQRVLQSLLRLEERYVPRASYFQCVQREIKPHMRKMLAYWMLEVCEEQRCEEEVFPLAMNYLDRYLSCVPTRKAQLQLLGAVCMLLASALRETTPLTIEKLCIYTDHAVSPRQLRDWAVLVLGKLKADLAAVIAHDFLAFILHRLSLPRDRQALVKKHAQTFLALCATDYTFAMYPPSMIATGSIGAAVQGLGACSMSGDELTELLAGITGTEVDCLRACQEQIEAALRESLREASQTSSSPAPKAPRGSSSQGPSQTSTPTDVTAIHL
Variant,normalised enrichment score
SLSKRKLELEVAT [E12A],0.0261
SASKRKLELEVET [L2A],0.109
SLSKAKAELEVET [R5A L7A],0.123
SLSKKKLELEVET [R5K],0.0467
SLSKRKAELEVET [L7A],-0.035
SLSKRKLEFEVET [L9F],-0.224
SLSKRKLELEVEA [T13A],0.152
ALSKRKLELEVET [S1A],0.113
SLSKRALELEVET [K6A],0.142
SLSKRKLEAEVET [L9A],0.0711

# Block 4 — technique: RNA Bind-n-Seq; form: RNA; matrix: in vitro; concentration: 20 nM; setting: 6-mer, flanks averaged, single round; added: 150 mM KCl; relative to: input library; reading: higher = stronger binding
# Target: TAR DNA-binding protein 43, full length, His tag (TARDBP, Homo sapiens, UniProt Q13148, residues 1-414)
Oligonucleotide,6-mer enrichment (R)
CACGUG,0.936
CUGGGU,1.68
CAAAUG,0.722
UACCAA,0.627
GGCGAU,1.5
UUUAGG,0.844
GACCUU,0.663
UGCAAC,0.658
CAGGCC,0.879
AUUUCA,0.549
GAGAAA,0.994
UGGAAC,0.851
ACGGCU,0.785
UGGAAU,0.829
CGUGUU,0.796
GGUGCG,3.45
CCGAAC,0.667
UACUAG,0.653
GGCUUG,1.47
GUGUUU,1.01
AAACAA,0.749
UUGUCG,0.751
UUCUCU,0.556
CAAUAU,0.624
CCAUUU,0.646

# Block 5 — technique: protein-binding microarray; form: double-stranded DNA, one strand shown; matrix: in vitro; concentration: 2200 nM top; setting: 60-bp whole probe; added: salmon DNA 0.4 mg/ml; relative to: random background probes; reading: higher = stronger binding; constant ends, left off below: GCCTAGCAC … GTCTTGATTCGCTTGACGCTGCTG
# Target: Interferon regulatory factor 7, full length, phosphomimetic (IRF7, Homo sapiens, UniProt Q92985, residues 1-503, S471D/S472D/S475D/S476D/S477D/S483D/S484D/S487D)
# Construct (chain): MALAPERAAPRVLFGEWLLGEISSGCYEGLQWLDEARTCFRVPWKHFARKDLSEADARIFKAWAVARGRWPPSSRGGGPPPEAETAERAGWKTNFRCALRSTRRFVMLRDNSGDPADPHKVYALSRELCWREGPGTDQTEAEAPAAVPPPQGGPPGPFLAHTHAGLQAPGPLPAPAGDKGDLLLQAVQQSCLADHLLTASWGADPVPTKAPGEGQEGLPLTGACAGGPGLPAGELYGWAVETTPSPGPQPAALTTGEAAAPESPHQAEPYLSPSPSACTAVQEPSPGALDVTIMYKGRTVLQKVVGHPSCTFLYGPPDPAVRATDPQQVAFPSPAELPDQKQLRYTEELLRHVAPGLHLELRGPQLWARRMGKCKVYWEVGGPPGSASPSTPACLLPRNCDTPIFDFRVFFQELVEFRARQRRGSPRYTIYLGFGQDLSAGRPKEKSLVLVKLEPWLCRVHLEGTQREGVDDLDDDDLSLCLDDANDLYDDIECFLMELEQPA
Oligonucleotide,fitted relative affinity [z-score]
TCATGATTACATATATGACTGTGCTAG,0.596
GACGGTTTCGGGACGGGGGACGTGCTA,4.68
CACGGACTGCTTCTCCTGACGTGCTAG,0.354
TTAGATCTCAGACGGGATTAGTGCTAG,-0.153
TTAGAACTGGGGGTTCGATTAGTGCTA,0.651
GACGGACTGGGTATCGGGACGTGCTAG,-0.793
GACGGACTGGGGTATCGAGACGTGCTA,-0.709
TTAGATTTCGGTATCGATTAGTGCTAG,3.49
TAAGGTTTCCTTTTCCTTTAGTGCTAG,7.01
GACGGTTTCGGTATCGGGTCGTGCTAG,8.86
TTAGAACCGGGGTTTCGATTAGTGCTA,2.22
GTTTCTTTTCTTTTCTTTTTGTGCTAG,8.92
GACGGTCTCCGTCTCGGGACGTGCTAG,-0.441
TTAGGACTGGGACTGGGCTAGTGCTAG,-1.15
ATAGGTATCCTTCTCCTTTAGTGCTAG,1.33
GCTCCAGGAAGCCTTGCCTGGTGCTAG,-0.668
GACAATATCGGGTATCGAGACGTGCTA,-0.126
TCATCCATGCTCTGTCGCACTGTGCTA,1.19
GTGACTCTGAACCTTGGGCTGTGCTAG,0.113
AGCACTCCAGAGGCAGAGGCGTGCTAG,-0.752
TCAGGTATAAACTTGGGACTGTGCTAG,-0.431
TTGGAACTGGGGTTTCGATTAGTGCTA,2.09
TCATGTATATATTTTAAACTGTGCTAG,0.527
TTAGGTATCCGACTGCTTTAGTGCTAG,0.302
TTAGGACTGGTCTTTCGGTTAGTGCTA,2.39

# Block 6 — technique: RNA Bind-n-Seq; form: RNA; matrix: in vitro; concentration: not given; relative to: input RNA pool; reading: higher = stronger binding
# Target: RING finger protein unkempt homolog, zinc fingers 1-6, GST-SBP tag (UNK, Homo sapiens, UniProt Q9C0B0, residues 30-357)
# Setting: RNA with constant flanks, human and mouse sites, ends assumed
# Constant ends, left off below: GGGAGUUCUACAGUCCGACGAUC … CAACAGAGGAUUGAGCAUCA
# Target sequence (chain): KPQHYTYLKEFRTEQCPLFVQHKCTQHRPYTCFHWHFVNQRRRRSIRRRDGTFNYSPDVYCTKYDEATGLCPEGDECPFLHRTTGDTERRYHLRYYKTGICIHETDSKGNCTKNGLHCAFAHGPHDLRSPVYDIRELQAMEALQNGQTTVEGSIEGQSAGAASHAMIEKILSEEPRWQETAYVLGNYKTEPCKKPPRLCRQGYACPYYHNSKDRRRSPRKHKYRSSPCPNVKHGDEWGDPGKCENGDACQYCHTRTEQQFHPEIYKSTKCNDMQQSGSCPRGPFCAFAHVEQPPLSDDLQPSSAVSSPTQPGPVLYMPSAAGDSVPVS
Oligonucleotide,bound/input enrichment
GCUAUAGUGACUCCAAAUAUUGAACCCUGUGCUUCACAGUCAUCUCAUCCUAAGGGAGAAUUGGUGCCAGAUGUCAGAAUUUCUACAAUUCAUGAUAUUCUUCAUAGUCAAGGAAAUAAC,0.385 ratio
CCCAUAUUACAUGGAUUAUGUACAUUUGGAUUUUCUGCCAGGCGUGUGUUACAGCAGUUUGCAGAUAAUGAUGUGUCAAGAUUCAAGGCAAUUAAGGCUCGUUUUGCAAAACCAGUAUAU,0.152 ratio
AAGAGCAGGGGGAGUAAUUUCAGUGCAAGUCAGAGCACUGACGACAACCUCCCAAACACCACCAGUGACUGUAGGCUCGAGGGCGAGGCCCCUUAUCUGUUGAGUCCAGAGGCUGGGCCA,0.091 ratio
GACCUUGCAAAAGUCCUACUGAAAAGGACAGUCCAGACUAUUGAAGCAUGUAUUGCCAAUUUUUUCAAUCAAGUCCUGGUGCUGGGCAGAUCAUCAGUCAGCGACCUGUCUGAACACGUA,0.13 ratio
CCCACGCCACGGGGCCAUGGGCAGCUCGAGCCAGGCAGGCUGCUGCCCACGCUUACUGCCAGGGUGACCCCAGCCCUGGGGCCCAGCCACAACCACCCUGGCUUCAUGCCAGGGGCUGCU,0.104 ratio
CAUAAGCAUGAUUUGGAUCUUAUAUGUAGAGCCCAUCAGGUGGUUGAAGAUGGAUAUGAAUUUUUUGCAAAGAGGCAGUUGGUCACUCUGUUUUCUGCGCCCAAUUAUUGCGGAGAGUUU,0.846 ratio
UGUCUCCACUCAGUGACGUGGGAUUUUUUUGUCUUCCUUUUGGCUUUAUUUUUAAACUGCUUUAGAUAUUACUGCUCAGUGUUUGUGAACUUUCCUAGUUCUCUAUGUUGUUAGUGCAGC,7.97 ratio
UCCCCUCUCGUGCCACCUCUGUCUCCUCUUCUUCCUCCUCUGUGUCCUUGUCCCUCUUCCUCUUUCUUUCCGUUUCCAAAGGAGCAAGCCAAAACCUCAAACCGGCGCCCCUUGGGGGCC,0.629 ratio
UGAAGGAGUCCCAGAAGCUGCACUAUGUUGUGACUGAAGUUCAAGGCCCCAGCAUUACCGUGGAGUUCUCUGAUUGCAAAGCUUCUCUCCAGCUUCCGAUGGAAAAGGCCAUUGAGACCG,0.0968 ratio
UGUUUCCUGAUCCAGCCGGAACCUGUGGUGGGUAGCAAGAUGCAUAAGGUGCAUGACCUGUUCACCCUCGGCAGCGGGGAAGCCAUGUUGCAGCUCAUCCCUCCCUUCCAGUGCCGAACA,0.119 ratio
UUCUGGUUUCCUUGGAGAAAAGCUCUGCUGCCCUGAUUAUGAACUCUAUAAUAGAGUAUAUAGCUUUUGUACCUUUUUUACAGGAAGGUGACUUUCUGUAAUCAUGUGAUGUAUAUUAAA,3.06 ratio

# Some of these lines once more (block 3):
Variant,normalised enrichment score
SLSKRKLELEVAT [E12A],0.0261
SASKRKLELEVET [L2A],0.109
SLSKAKAELEVET [R5A L7A],0.123
SLSKKKLELEVET [R5K],0.0467
SLSKRKAELEVET [L7A],-0.035
SLSKRKLEFEVET [L9F],-0.224
SLSKRKLELEVEA [T13A],0.152
ALSKRKLELEVET [S1A],0.113
SLSKRALELEVET [K6A],0.142
SLSKRKLEAEVET [L9A],0.0711
